Measurements collected from several papers.
Every numbered part comes from another study and shows a few of its results, in no order.

Series 1
Target: RNA binding protein fox-1 homolog 2, RRM domain, GST-SBP tag (RBFOX2, Homo sapiens, UniProt O43251-10, residues 100-194)
Method: RNA Bind-n-Seq
Form: RNA
Matrix: in vitro
Concentration: 365 nM
Notes: natural RNA segment, single round, ends assumed
Reference: no-protein control
Direction: higher = stronger binding
Constant ends, left off below: GGGAGUUCUACAGUCCGACGAUC … UGGAAUUCUCGGGUGCCAA
Construct (chain): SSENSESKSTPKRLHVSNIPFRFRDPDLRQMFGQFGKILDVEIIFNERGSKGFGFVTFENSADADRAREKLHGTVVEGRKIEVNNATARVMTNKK
| Strand | RBNS enrichment (R) |
| --- | --- |
| ACAUGGAGUGGUUCAGCGCGGCCUGGGUGCCUGGCGGACAGAACUUCAGAGACCACGCAGCCUUCCUUCGAAGACGCACCUGCCCAGCCCAGCCCAGGGGUGCCGUGGAG | 0.359 |
| UUCCAGAGCUCUUUGAUCGCUUUUAAUAAACUGCAAGUUCAUUUUAAAUGAAGGGCCAGCAUAUAUACUUGCAAGAUAAUUUUCAGCUGCAAGGAUUCAGCACCAGUUAU | 0.92 |
| CCAACUCAGCAUCUGCUUCCAGAAGUUUCCCACUUGCAGAUGUUCAGUGCAGUUACAGACAUGCGUUUGAUUCCACAGUUUUGUUUCAUUUCAAAAGAAUUCCCCUCACA | 0.396 |
| AUUUUUUUUUCUCUAAGAAGAGGCUUUGGAAUGAGUUCCAAUUUGUGAUGUUAAUACAGGCUUCUUGUUUUAGGAAGCAUCACCUAUACUCUGAAGCCUUUAAACUCUGA | 1.09 |
| UCACACCAUGGGAUACAUCUGUAUGGAGACGGUUCUUUUCUAGAUUUCCUCUACCUUUCUGCUCUUAAACUGCUUCUCUGCUCUGAGAAGCCCAGCUACCUGCCUUCACU | 0.415 |
| CUGUGGGCCAGAAAGCAGGCACCAGGGCUGACCUCAAGGCCGUAUCAGAGGGCCAAGCAGAGUUCUUUUGGAUACCUGCUUUUCAUCCCACAGGGCCUUAGAGUCAGAGG | 0.342 |
| CAUGAGGACUGAUUCCUGUUCACACAACAAAUAUUCAGUGAAUGUCUACUAUGUGCCAGGUUCUGGGGAAGCAGGCAGGGUACAGUCACUUUUGGCCAAGGGUCUUGGGU | 0.678 |
| UGCUGCUAUCAGGACCCAUUCUGGAGCCCCAUUUCUAACCUAUGAGGCCCUGCCAGCUGUCACUCAGGCUGGAGGAGAAGCAAGUGUUUAUCACUGCUGGAAUUUGGAUG | 0.451 |

Series 2
Target: Interferon regulatory factor 5, full length, phosphomimetic (IRF5, Homo sapiens, UniProt Q13568-2, residues 1-514, S451D/S453D/S456D/S462D)
Method: protein-binding microarray
Form: double-stranded DNA, one strand shown
Matrix: in vitro
Concentration: 940 nM top
Notes: 60-bp whole probe
Together with: salmon DNA 0.4 mg/ml
Reference: random background probes
Direction: higher = stronger binding
Constant ends, left off below: GCCTAGCAC … GTCTTGATTCGCTTGACGCTGCTG
| Strand | fitted relative affinity [z-score] |
| --- | --- |
| TCATATATCATTTAATTACTGTGCTAG | 0.752 |
| GAACCTTGGCCTCTAGGTTTGTGCTAG | -0.532 |
| TCAGGTGTCTTTTGTGGAACTGTGCTA | 0.116 |
| TTAGACCTGAGTATCGATTAGTGCTAG | 4.25 |
| CTAGTTTTCATTTTCTGAATGTGCTAG | 1.97 |
| GACGGTCTCCTTTTACTGACGTGCTAG | 0.755 |
| TTATCAATCATTTTCGTTTTGTGCTAG | 1.56 |
| GACGGGATCGGGACTGGGGACGTGCTA | -0.223 |
| GATGAATAAAGCGTTGCTGCGTGCTAG | -0.437 |
| TCATCTCCCCCATCTTGTACTGTGCTA | 0.631 |
| TCACGGATGATCTCTCTGACTGTGCTA | 0.0171 |
| GTTGTTTTAAATTCTAATTAGTGCTAG | 0.136 |
| TATGTTCCCTATTTAAGGCTGTGCTAG | 0.467 |
| TACGGACTGGGACTGGGGACGTGCTAG | -0.479 |
| TCATCTCTGCTCCTTCTGACTGTGCTA | 1.03 |
| GACGGTCTGGACTTTCGGGACGTGCTA | 0.326 |
| GACGGATTGGGTCTCGGGACGTGCTAG | 0.419 |
| TTAGATATCGGGTATCGATTCGTGCTA | 2.81 |
| TTACATTTTAATTTTATTTGGTGCTAG | 0.692 |

Series 3
Target: Centromere-binding protein 1, full length, His-tagged (CBF1, Saccharomyces cerevisiae, UniProt P17106, residues 1-351)
Chain of UniProt P17106 (whole entry, looked up): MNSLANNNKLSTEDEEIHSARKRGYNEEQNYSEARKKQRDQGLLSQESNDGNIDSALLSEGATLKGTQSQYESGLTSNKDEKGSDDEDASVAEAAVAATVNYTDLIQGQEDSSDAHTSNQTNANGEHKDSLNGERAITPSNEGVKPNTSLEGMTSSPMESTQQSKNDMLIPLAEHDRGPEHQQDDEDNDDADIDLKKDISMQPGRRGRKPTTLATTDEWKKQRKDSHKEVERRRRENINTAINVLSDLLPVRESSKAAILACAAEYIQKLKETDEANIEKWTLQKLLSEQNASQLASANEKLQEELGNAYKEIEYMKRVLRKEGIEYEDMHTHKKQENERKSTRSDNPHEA
Method: competition protein-binding microarray
Form: double-stranded DNA, one strand shown
Matrix: in vitro
Concentration: 2 µM
Notes: whole 60-bp probe, lowest competitor level
Together with: Pho4 competitor, 0.05 µM
Direction: higher = stronger binding
Constant ends, left off below: … GTCTTGATTCGCTTGACGCTGCTG
| Strand | fluorescence intensity |
| --- | --- |
| TTGAATGAGCAATCGCACGATGTCCCAATGGCACTC | 65.8 a.u. |
| GCGGCTAAATTTAAGGGCGTGATGGCAGAACTCGGC | 122 a.u. |
| CTTCTGTAAATTTGCATTGTGGGTGGACGCGCCCCG | 73.9 a.u. |
| TACCGATGATGTTGTCATGATGGACAGTGATGAGGG | 80.9 a.u. |
| GGGCTTCAGAAAAAAGGCGTGCGATGTGTAGATGTA | 79.5 a.u. |
| CTGCTTGGCGTATGGGGCGTGCAAATAACTGTTCAT | 122 a.u. |
| TGTACCGGGTGGGACGTCGTGCAAAGAATCAGAAGT | 73.3 a.u. |
| CAGTGGGATGATCTACTCGTGTGGAAGACATGTCGA | 79.2 a.u. |
| AAGTTGAAGAAAAGCCAGGTGACGGAGGTGCCCTAG | 68.2 a.u. |
| TTATTAGGTTCGAGTCACGTGATGGGTCCTTTTCTG | 14000 a.u. |
| CCAGAAAGCCGCTATCACGTGATGGTCAATTTCTTT | 13500 a.u. |
| CATACCCAACCTTGTATGGTGGGTGAAGATATTTGT | 70.5 a.u. |
| AAAGCGGTAATTTTTCACGTGTATTCACATATCTAT | 940 a.u. |
| GGCACCCGCGATTCACACGTGTCCAAAAGAGTTCCC | 1010 a.u. |
| TCCAGTGAAGCGCCCCTCGTGCTTTGGAAATCCCTG | 154 a.u. |
| CTTTCCCGATCTTGTATGGTGGGTGTAGCACATTTG | 65.4 a.u. |
| GTCTACAGCGTACTTCACGTTGTTCTCCTGAGGCAG | 79.5 a.u. |
| TGCGCAACAACTTTTCACGTGCGGTTATGTCTAGAA | 918 a.u. |
| CTTCTGTAAATTTGAGAGGTGGGTGGACGCGCCCCG | 85.1 a.u. |

Series 4
Target: Protein max, full length (MAX, Homo sapiens, UniProt P61244-2, residues 1-151)
Method: protein-binding microarray
Form: double-stranded DNA, one strand shown
Matrix: in vitro
Concentration: not given
Notes: k-mer, scored over probes, only values ≥0.25
Direction: higher = stronger binding
| Strand | E-score |
| --- | --- |
| CGTCACAC | 0.27 |
| CGCATGCG | 0.424 |
| CGTGACAG | 0.374 |
| CAGGTGTA | 0.352 |
| ACACCTGC | 0.375 |
| TGCGAAAA | 0.274 |
| CGTTCTCC | 0.281 |
| CGCATGAG | 0.342 |
| CGGGACAC | 0.292 |
| CACGCATG | 0.437 |
| ATAGCACG | 0.387 |
| CATGCTAC | 0.4 |
| CCGCATGA | 0.412 |
| GCACACGC | 0.427 |
